Measurements from different studies.
Numbered parts are unrelated; each lists some results of a single study.

Study 1 — technique: protein binding microarray; form: double-stranded DNA, one strand shown; medium: in vitro; concentration: not given; reference: not given; reading: higher = stronger binding
Target: Histone acetyltransferase KAT6A, winged helix 2, GST fusion (KAT6A, Homo sapiens, UniProt Q92794, residues 85-181)
Notes: 8-mer, flanks averaged, mean of 2 arrays, mostly near background
Residues (chain): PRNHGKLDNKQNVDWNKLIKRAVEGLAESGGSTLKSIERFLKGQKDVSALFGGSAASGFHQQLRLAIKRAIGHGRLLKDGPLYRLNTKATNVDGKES
Sequence	E-score
GGGGTAGA	-0.0551
ACGGCCCG	0.23
GTCAAGGA	-0.0825
ATCAGGTG	-0.0542
ATAGTCAA	-0.0616
ATTATGGA	0.0629
AAACAAAC	0.113
ATCCTCGG	0.0505
AGATCCGG	0.0691
GAATACAA	0.135
AGGAGGGC	-0.0091
CCAACGAG	-0.0689
ATTACAAA	0.149
ACTAACCC	-0.119
CAGTTTGG	-0.0258
AGTGCGAT	-0.0341
AGGAATGG	-0.0566
CGTGCGAC	0.103
CCTTTCAC	-0.0555
CAGTCAAG	-0.00948
ACCAGAAC	0.046
AGGCTTGG	0.0424
CGGGCTGC	0.236
CTCTTGAA	0.0443
AGAGTCAG	-0.105

Study 2 — technique: DNA-protein interaction ELISA; form: double-stranded DNA, one strand shown; medium: in vitro, bacterial lysate; concentration: not given; notes: whole dsDNA probe, crude lysate protein; reference: highest signal in screen; reading: higher = stronger binding
Target: Probable WRKY transcription factor 33, C-terminal DNA-binding domain (WRKY33, Arabidopsis thaliana, UniProt Q8S8P5, residues 346-449)
Target sequence (chain): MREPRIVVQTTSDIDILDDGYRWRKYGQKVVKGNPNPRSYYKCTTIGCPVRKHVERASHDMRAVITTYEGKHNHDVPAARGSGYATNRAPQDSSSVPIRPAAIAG
Sequence	relative absorbance
AAAAAAACATCCACACCCGCGGCGCGAAAA	44.2 % of maximum
AAAAAATTCCTGTCCGCTCTCGCTCCAAAA	58.1 % of maximum
AAAAAATGGAAAGACCTATACCGGTCAAAA	45.1 % of maximum
AAAAAATGGTTTCAATTTTCCGTCCGAAAA	32.2 % of maximum
AAAAAATTTTGTTTTTGCTTTTCCTTAAAA	24.3 % of maximum
AAAAAAGCTAGTCGATTCGGCTTAGAAAAA	40.9 % of maximum
AAAAAACACTGCACTATTGGGAGTTCAAAA	37.4 % of maximum
AAAAAACACAGCATTAGGCTATCGGTAAAA	40.2 % of maximum
AAAAAAGGTTTAGCCCATGCCTGTGCAAAA	28.7 % of maximum
AAAAAAGTGTTAGATTGTAGTTGATAAAA	31.4 % of maximum
AAAAAACGCAACTCCGGATGTGGGGTAAAA	42.1 % of maximum
AAAAAATCGCACTGCCGCCGATGGCTAAAA	49.3 % of maximum
AAAAAACGCATCATAGCTACGCCCCAAAAA	31.4 % of maximum
AAAAAATTCGGGACTAGTAGTGGTGAAAAA	34.1 % of maximum
AAAAAAAATACTGCGCACTTGCACTCAAAA	44.5 % of maximum
AAAAAACTACCTCTACTCTAGCCTTAAAAA	27.8 % of maximum

Study 3 — technique: protein-binding microarray; form: double-stranded DNA, one strand shown; medium: in vitro; concentration: 250 nM; notes: 60-bp whole probe; added: salmon DNA 0.4 mg/ml; reference: random background probes; reading: higher = stronger binding; all sequences stand within: GCCTAGCAC … GTCTTGATTCGCTTGACGCTGCTG
Target: Interferon regulatory factor 5, full length, phosphomimetic (IRF5, Homo sapiens, UniProt Q13568-2, residues 1-514, K96S/S451D/S453D/S456D/S462D)
Sequence	log fluorescence [z-score]
GAGGGTCTCCTTATCCTGACGTGCTAG	-0.499
GACGGTATCGGACTGTGGACGTGCTAG	0.754
TCAACACTAATTTTCATACTGTGCTAG	1.32
TTAGGTCTTGGACTGGGTTAGTGCTAG	-0.38
TCATCTTTCTCTGCTACCACTGTGCTA	1.56
TCATTTAGAAATTTCTTACTGTGCTAG	1.02
TTAGCTCTCGGTTTCGGTTAGTGCTAG	9.17
TTAGGTTTCCTTCTCCATTAGTGCTAG	0.99
TTCGGACTGGGACTGGGTTAGTGCTAG	-0.208
GACGAACTGAGTATCGAGTCGTGCTAG	2.01
TTGGGTTTCCTACTGCTTTAGTGCTAG	0.269
TCATGATTGGTTGAACAACTGTGCTAG	0.214
GACGATCTGAGTATCGAGACGTGCTAG	1.59
TCACCTATGTCATTTACACTGTGCTAG	0.703
GACGATTTCGGGACTGGAGGCGTGCTA	1.61
TCATTATTCTAGCCTCCAACTGTGCTA	0.616
TCAGGTCACTCTCTGGGACTGTGCTAG	-0.645
TTGGCTTATTCCAGATTTTTGTGCTAG	0.134
GACGATTTCAGACTGGTGACGTGCTAG	0.243

Study 4 — technique: RNA Bind-n-Seq; form: RNA; medium: in vitro; concentration: 1 µM; notes: whole 134-nt RNA, ends assumed; added: 150 mM KCl; reference: input library; reading: higher = stronger binding
Target: Ras GTPase-activating protein-binding protein 1, RRM domain (G3BP1, Homo sapiens, UniProt Q13283)
UniProt Q13283, sequence (whole entry, looked up): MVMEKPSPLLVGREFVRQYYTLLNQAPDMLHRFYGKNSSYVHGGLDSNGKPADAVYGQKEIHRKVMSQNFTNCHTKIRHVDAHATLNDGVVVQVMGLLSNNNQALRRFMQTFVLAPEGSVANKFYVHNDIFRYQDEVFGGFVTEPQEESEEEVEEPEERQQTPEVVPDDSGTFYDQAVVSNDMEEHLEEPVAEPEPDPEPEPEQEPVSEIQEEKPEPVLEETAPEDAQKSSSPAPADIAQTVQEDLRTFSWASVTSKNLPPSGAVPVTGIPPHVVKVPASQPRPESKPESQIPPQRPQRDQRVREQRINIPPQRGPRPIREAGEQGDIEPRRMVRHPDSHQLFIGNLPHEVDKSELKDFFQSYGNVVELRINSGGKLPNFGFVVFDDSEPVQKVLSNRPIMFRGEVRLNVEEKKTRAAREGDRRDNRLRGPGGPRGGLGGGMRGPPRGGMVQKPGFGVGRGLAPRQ
All sequences stand within: GGGAGUUCUACAGUCCGACGAUC … UGGAAUUCUCGGGUGUCAAGG
Sequence	log2 enrichment
CCUCAAGUCCUGUGCUACACAUCGUAUGUACCGAAUCGGAGGAAAAAGGAGGAAAGUAUUAUGUUACGCCGUUCGGAUCUGCACUUCCAG	-0.138
GUCCUGUGCUACACAUCGUAUGUACCGAAUCGGGGAAAGGGGAAAAAGGGGUUUGGGGAAAGUAUUAUGUUACGCCGUUCGGAUCUGCAC	1.38
CUGUGCUACACAUCGUAUGUACCGAAUCGGGGUUUUUUUGGGGAAAAAGGGGUUUUUGGGGAAAGUAUUAUGUUACGCCGUUCGGAUCUG	0.549
AAGUCCUGUGCUACACAUCGUAUGUACCGAAUCGGGGUUUUGGUUUUGGUUUUGGGAAAGUAUUAUGUUACGCCGUUCGGAUCUGCACUU	-0.533
UGGCCCUGGUGGCAAGCGGGGAGGAAGAGGUGGCCUCAUGGAUCGUGGUGGUCCCGGUGGAAUGUUCAGAGGUGGCCGUGGUGGAGACAG	0.819
CUCAAGUCCUGUGCUACACAUCGUAUGUACCGAAUCGGGGCGGCGGGGCGGGGAAAGUAUUAUGUUACGCCGUUCGGAUCUGCACUUCCA	0.115
CAAGUCCUGUGCUACACAUCGUAUGUACCGAAUCGGGAAAGGGGAAAGGAAAGGGGAAAGUAUUAUGUUACGCCGUUCGGAUCUGCACUU	0.263
GCAGGAAGUAAAAACAAAUGGAAAUGCUUCGGAUAGUGGCAGGGGUGGGGGUUGCUAAGGCAAGGGUGGGAUGGGAGUGGGUAAAGAGUU	1.2
UGGCCCUGGUGGCAUGCGGGGAGGAAGAGGUGGCCUCAUGGAUCGUCGUGGUCCCGGUGGAAUGUUCAGAGGUGGCCGUGGUGGAGACAG	0.782
